# Experimental data from different studies.
# Every numbered part comes from another study and shows a few of its results, in no order. Changes are numbered by the printed parent chain.
# Sequence of UniProt P78368 (whole entry, looked up): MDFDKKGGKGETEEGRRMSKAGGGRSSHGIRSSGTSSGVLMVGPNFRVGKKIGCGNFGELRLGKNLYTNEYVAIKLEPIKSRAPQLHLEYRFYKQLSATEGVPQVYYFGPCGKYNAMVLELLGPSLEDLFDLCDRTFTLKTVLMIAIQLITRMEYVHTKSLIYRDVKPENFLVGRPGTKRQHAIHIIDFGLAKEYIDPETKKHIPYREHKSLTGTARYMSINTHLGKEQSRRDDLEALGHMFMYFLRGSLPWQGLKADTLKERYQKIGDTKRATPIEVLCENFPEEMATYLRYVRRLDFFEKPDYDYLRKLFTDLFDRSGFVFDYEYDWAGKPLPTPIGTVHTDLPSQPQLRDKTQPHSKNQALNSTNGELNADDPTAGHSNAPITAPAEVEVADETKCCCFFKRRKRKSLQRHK
# Sequence of UniProt P53350 (whole entry, looked up): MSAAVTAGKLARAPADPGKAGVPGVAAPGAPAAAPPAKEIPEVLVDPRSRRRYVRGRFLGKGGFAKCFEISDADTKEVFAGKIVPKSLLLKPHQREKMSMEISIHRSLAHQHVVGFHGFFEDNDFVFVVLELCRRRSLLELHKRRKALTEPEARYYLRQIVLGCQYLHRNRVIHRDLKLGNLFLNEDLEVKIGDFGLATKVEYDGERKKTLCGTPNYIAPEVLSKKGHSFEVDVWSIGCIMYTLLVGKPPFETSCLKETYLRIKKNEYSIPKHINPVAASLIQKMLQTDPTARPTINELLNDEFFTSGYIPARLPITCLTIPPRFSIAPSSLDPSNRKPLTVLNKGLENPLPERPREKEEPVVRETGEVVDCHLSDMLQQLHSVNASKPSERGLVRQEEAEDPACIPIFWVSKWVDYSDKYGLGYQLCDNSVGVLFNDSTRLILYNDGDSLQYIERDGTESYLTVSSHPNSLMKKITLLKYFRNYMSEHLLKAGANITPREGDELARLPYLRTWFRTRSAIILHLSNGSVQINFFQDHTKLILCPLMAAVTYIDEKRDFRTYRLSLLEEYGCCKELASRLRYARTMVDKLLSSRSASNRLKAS
# Sequence of UniProt Q2M2I8 (whole entry, looked up): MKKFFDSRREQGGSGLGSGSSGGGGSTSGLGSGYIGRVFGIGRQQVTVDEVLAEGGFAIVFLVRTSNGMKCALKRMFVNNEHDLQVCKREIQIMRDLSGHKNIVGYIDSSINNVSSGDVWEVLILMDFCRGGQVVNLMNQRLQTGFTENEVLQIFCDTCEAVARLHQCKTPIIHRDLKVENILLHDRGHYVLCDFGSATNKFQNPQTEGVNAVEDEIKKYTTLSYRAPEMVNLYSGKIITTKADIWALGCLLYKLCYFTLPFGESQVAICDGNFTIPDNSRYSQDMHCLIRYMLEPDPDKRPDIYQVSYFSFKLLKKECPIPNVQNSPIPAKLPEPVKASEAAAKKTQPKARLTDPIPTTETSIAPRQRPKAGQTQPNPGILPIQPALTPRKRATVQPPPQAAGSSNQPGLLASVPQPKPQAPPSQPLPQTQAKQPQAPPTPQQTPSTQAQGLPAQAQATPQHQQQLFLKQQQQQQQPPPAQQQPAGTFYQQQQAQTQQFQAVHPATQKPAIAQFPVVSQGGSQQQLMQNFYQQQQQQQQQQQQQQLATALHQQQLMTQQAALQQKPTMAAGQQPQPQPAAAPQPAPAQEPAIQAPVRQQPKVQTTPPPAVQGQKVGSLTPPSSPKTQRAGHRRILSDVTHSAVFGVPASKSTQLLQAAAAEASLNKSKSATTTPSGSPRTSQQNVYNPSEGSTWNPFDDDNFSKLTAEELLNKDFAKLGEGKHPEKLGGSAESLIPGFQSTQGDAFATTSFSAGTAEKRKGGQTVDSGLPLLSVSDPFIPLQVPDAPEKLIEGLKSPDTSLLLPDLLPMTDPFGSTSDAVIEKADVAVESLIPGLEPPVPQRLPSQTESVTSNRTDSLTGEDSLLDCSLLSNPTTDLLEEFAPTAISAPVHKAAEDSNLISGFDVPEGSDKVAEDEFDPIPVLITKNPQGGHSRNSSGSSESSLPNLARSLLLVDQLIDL
# Sequence of UniProt Q04912 (whole entry, looked up): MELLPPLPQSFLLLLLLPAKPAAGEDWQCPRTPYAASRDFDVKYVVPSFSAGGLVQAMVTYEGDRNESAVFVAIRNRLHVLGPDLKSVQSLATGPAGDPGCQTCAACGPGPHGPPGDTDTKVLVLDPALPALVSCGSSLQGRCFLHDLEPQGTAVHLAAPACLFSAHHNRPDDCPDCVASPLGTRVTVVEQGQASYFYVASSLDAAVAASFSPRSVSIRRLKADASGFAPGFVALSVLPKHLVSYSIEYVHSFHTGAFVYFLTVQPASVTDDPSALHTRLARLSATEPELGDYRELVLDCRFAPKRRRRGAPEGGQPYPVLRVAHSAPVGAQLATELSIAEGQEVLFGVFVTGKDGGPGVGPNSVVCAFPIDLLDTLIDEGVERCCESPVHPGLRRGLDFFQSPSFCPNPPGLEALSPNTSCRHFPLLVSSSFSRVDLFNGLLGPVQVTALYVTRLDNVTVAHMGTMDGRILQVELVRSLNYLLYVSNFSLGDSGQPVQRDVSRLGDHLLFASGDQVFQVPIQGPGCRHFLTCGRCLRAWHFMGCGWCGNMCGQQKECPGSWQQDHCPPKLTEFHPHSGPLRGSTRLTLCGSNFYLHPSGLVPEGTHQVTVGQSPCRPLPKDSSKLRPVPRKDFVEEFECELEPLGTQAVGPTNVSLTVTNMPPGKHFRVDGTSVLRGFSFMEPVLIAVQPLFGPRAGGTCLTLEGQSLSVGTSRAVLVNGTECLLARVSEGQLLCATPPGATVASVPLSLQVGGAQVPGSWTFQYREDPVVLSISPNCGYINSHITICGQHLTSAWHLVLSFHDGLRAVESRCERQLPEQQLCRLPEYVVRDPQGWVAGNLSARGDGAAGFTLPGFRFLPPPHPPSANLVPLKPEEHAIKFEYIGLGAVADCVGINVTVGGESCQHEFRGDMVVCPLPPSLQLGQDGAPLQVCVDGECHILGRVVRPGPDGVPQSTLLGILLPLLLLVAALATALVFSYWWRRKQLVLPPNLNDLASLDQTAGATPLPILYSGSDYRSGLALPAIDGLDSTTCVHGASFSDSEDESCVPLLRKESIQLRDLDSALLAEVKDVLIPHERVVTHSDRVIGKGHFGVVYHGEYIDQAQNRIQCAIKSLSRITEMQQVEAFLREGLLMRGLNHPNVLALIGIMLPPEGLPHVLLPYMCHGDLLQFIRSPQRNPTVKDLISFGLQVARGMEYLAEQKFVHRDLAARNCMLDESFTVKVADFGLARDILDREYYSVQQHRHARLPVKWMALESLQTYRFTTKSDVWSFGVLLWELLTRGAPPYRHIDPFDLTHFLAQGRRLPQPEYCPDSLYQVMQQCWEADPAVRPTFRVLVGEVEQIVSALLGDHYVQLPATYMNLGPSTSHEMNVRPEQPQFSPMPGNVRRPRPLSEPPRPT
# Sequence of UniProt P29320 (whole entry, looked up): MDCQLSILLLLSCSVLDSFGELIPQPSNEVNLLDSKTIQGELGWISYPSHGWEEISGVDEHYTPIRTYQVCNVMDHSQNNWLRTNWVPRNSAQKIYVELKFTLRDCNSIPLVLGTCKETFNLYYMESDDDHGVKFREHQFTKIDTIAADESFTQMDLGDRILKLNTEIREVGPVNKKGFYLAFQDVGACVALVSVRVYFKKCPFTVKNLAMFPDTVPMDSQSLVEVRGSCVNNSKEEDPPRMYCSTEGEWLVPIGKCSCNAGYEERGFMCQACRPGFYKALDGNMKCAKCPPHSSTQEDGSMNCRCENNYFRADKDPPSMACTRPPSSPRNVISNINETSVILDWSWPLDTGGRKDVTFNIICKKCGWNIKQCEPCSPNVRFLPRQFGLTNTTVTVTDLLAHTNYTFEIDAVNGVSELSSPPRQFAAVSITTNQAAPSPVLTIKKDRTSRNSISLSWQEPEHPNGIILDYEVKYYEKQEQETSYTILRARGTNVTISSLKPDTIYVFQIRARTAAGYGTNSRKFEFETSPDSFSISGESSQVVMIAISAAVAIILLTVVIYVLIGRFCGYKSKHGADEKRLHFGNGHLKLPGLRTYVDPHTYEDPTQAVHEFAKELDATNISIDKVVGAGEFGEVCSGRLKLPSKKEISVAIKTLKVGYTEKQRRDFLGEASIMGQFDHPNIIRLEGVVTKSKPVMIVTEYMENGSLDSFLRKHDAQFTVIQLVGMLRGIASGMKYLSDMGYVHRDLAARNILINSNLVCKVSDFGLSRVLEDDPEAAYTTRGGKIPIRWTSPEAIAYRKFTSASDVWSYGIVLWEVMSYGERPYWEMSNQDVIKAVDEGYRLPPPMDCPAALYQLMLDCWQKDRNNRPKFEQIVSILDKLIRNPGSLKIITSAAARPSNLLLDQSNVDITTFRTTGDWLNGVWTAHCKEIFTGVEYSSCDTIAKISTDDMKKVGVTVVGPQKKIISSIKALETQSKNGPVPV
# Sequence of UniProt Q8WTQ7 (whole entry, looked up): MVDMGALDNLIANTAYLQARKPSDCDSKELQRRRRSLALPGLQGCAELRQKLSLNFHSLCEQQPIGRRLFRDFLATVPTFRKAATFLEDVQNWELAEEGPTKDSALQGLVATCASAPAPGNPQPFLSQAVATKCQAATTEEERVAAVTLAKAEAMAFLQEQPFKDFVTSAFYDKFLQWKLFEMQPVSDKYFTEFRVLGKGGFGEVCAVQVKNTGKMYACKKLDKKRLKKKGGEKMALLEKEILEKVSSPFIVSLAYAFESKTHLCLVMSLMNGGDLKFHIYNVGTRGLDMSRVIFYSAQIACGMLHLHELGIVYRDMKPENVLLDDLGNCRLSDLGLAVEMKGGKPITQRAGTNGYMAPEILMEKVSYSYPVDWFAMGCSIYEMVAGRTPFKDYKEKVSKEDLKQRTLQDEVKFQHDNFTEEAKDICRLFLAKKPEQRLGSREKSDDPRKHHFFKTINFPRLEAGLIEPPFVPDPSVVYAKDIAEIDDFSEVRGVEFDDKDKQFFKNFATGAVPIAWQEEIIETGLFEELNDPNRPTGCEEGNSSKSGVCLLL

# Series 1 — tested at: 1 µM
# SMILES: CCOCCn1cc(C(=O)Nc2ccc(-n3nc(-c4cccnc4)cc3C(F)(F)F)cn2)ccc1=O
target,assay,remaining binding [%]
"MAP4K2 (Homo sapiens, UniProt Q12851)","cell-free assay, competition with immobilised ligand",76
"MAP2K4 (Homo sapiens, UniProt P45985)","cell-free assay, competition with immobilised ligand",80
"AAK1 (Homo sapiens, UniProt Q2M2I8)",binding,100
"PLK1 (Homo sapiens, UniProt P53350)","cell-free assay, competition with immobilised ligand",100
"MYLK2 (Homo sapiens, UniProt Q9H1R3)","cell-free assay, competition with immobilised ligand",89
"DMPK (Homo sapiens, UniProt Q09013)","cell-free assay, competition with immobilised ligand",100
"MAPK11 (Homo sapiens, UniProt Q15759)","cell-free assay, competition with immobilised ligand",80
"BMPR2 (Homo sapiens, UniProt Q13873)","cell-free assay, competition with immobilised ligand",100
"EPHA7 (Homo sapiens, UniProt Q15375)","cell-free assay, competition with immobilised ligand",98
"Ribosomal protein S6 kinase alpha-4, N-terminal kinase domain (RPS6KA4, Homo sapiens, UniProt O75676)","cell-free assay, competition with immobilised ligand",100
"EGFR (Homo sapiens, UniProt P00533, T790M)","cell-free assay, competition with immobilised ligand",100

# Series 2 — target: CEBPD, bZIP domain (human); method: DHFR protein complementation; matrix: yeast; baseline: wild-type JUN-FOS pair; direction: higher = stronger binding
# Setting: single substitutions, most at no-binding floor
# Parent: JUN, bZIP domain (human); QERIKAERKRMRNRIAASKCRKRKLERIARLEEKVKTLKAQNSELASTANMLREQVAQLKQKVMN; partner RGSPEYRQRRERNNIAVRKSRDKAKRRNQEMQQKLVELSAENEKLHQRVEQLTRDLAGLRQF
Change,binding fitness [natural log]
R30I,-1.31
S43R,-1.29
L38W,-1.5
V56K,-1.43
K34A,-1.29
L31V,-1.37
T48R,-1.27
V56M,-1.5

# Series 3 — effect on: enzyme activity; action: inhibitor; tested at: 0.5 µM; baseline: control
# SMILES: CN([C@@H](Cc1ccc(OS(=O)(=O)c2cccc3cnccc23)cc1)C(=O)N1CCN(c2ccccc2)CC1)S(=O)(=O)c1cccc2cnccc12
target,remaining activity [%]
"MAP2K2 (Homo sapiens, UniProt P36507)",119
"MAP3K14 (Homo sapiens, UniProt Q99558)",90.7
"CSNK1G2 (Homo sapiens, UniProt P78368)",100
"NEK6 (Homo sapiens, UniProt Q9HC98)",101
"ULK2 (Homo sapiens, UniProt Q8IYT8)",106
"FGFR3 (Homo sapiens, UniProt P22607)",98.8
"GRK7 (Homo sapiens, UniProt Q8WTQ7)",105
"MST1R (Homo sapiens, UniProt Q04912)",94.4
"EPHA3 (Homo sapiens, UniProt P29320)",102
"MERTK (Homo sapiens, UniProt Q12866)",100
"NEK1 (Homo sapiens, UniProt Q96PY6)",102

# Mixed results — method: cross-linking MS
Molecule,partner,system,conditions,measurement,result
"EIF4A1 (Homo sapiens, UniProt P60842)","EIF4G2 (Homo sapiens, UniProt P78344)",cell fractions,with: DMTMM,cross-linked residues,D125 to K313
"DDX6 (Homo sapiens, UniProt P26196)","LSM12 (Homo sapiens, UniProt Q3MHD2)",cell fractions,with: DSSO,cross-linked residues,K269 to K154
"BCAS2 (Homo sapiens, UniProt O75934)","CDC5L (Homo sapiens, UniProt Q99459)",,hits only,interaction screen,cross-linked
"HNRNPK (Homo sapiens, UniProt P61978)","MGAT2 (Homo sapiens, UniProt Q10469)",cell fractions,with: DSSO,cross-linked residues,S216 to S137

# A few entries again (series 2):
Change,binding fitness [natural log]
R30I,-1.31
S43R,-1.29
